{"data": "Results of several laboratories", "note": "Compare with care: the assays were run in different laboratories. ± marks the error that the study gave."}
{"Structure (SMILES)": "CCN(CC)CC(=O)Nc1cccc(-n2cc(-c3ccc4ccc(-c5cn(-c6cccc(NC(=O)CN(CC)CC)c6)nn5)cc4c3)nn2)c1", "target or system": "RCC4", "test": "PCR angiogenesis array, item: PGF", "conditions": "5 x IC50, 6 h, normoxia", "scale": "baseline: untreated", "measurement": "fold regulation", "result": -1.79}
{"Structure (SMILES)": "CN1CCC[C@]1(C)/C=C/S(=O)(=O)NC(=O)Nc1c2c(cc3c1CCC3)CCC2", "test system": "human, whole blood ex vivo", "conditions": "12.5 mg twice daily, day 1, 6 h, multiple ascending dose, together with: LPS and ATP", "measurement": "IL-18 inhibition", "result": "96.5%"}
{"Structure (SMILES)": "CN1CCCNC(=O)c2cccc(c2)C(=O)NCCCN(C)CCCNc2cccc3c2C(=O)c2cccc(c2C3=O)NCCC1", "target or system": "SAS", "test": "RNA-Seq, item: EIF4ENIF1 mRNA", "conditions": "1 µM, 6 h", "scale": "baseline: untreated cells", "measurement": "log2 fold change", "result": -0.908}
{"Structure (SMILES)": "CNS(=O)(=O)Nc1nccc(Cc2c(C)c3ccc(Oc4ncccc4F)cc3oc2=O)c1F", "target or system": "KYSE-270", "test": "cell viability", "conditions": "7 days", "measurement": "IC50", "result": "> 1000 nM"}
{"Structure (SMILES)": "C=CC(=O)Nc1cccc(Cn2ncc3cnc(Nc4cnn(CCOC)c4)nc32)c1", "target or system": "ACVRL1 human", "test": "binding, KINOMEscan", "conditions": "100 nM", "scale": "lower = stronger binding", "measurement": "percent of control", "result": "100%"}
{"Structure (SMILES)": "Nc1ncc(-c2cc(-c3cnn(CC(F)(F)F)c3)ncc2F)nc1C(=O)NC1CNCC(F)C1 (stereo not drawn)", "target or system": "CTK", "test": "KINOMEscan competition binding", "conditions": "1 µM", "scale": "baseline: DMSO control", "measurement": "remaining binding", "result": "56%"}
{"Structure (SMILES)": "Cc1ncsc1-c1ccc(C(C)NC(=O)C2CC(O)CN2C(=O)C(NC(=O)CCCCCCCCCCN2CCCC(Nc3ncc(Cl)c(Nc4ccccc4S(=O)(=O)C(C)C)n3)C2)C(C)(C)C)cc1 (stereo not drawn)", "target or system": "22Rv1", "test": "RNA-seq, item: MAFG-DT", "conditions": "concentration not given", "scale": "baseline: DMSO", "measurement": "log2 fold change", "result": -2.77}
{"Structure (SMILES)": "COc1ccc(C(=O)CCc2cc(C(CCc3ccc(O)cc3OC)c3ccc(O)cc3)c(O)cc2OC)cc1 (racemic)", "test system": "human blood", "conditions": "10 µM, together with: A23187", "measurement": "4-HDHA level", "result": "27 ± 3 pg/mL"}
{"Structure (SMILES)": "COC1CN([C@H]2CC[C@H]([C@@]3(C)Oc4c(Cl)cc(C(=O)NCc5c(SC)cc(C)[nH]c5=O)c(C)c4O3)CC2)C1", "test": "RNA-seq, item: MMP14", "test system": "human, whole blood", "conditions": "dose not given, 24 h", "scale": "baseline: pretreatment baseline", "measurement": "log2 fold change", "result": 2.92}
{"Structure (SMILES)": "C=CC(=O)N1[C@@H](c2ccc3c(c2)OCO3)c2[nH]c3ccccc3c2C[C@H]1C(=O)N1CCN(C)CC1", "target or system": "human cyclin E1 wild type-3xFLAG:CDK2", "test": "co-IP with TMT proteomics, item: HNRNPU", "conditions": "concentration not given, Q00839", "scale": "baseline: wild type DMSO", "measurement": "relative co-enrichment", "result": "103%"}
{"Structure (SMILES)": "CC(=O)[O-].O.[Cu+2].[O-]c1ccc(Br)cc1C=NCCN1CCOCC1", "test": "nitric oxide scavenging", "conditions": "80 µM", "measurement": "inhibition", "result": "22.6%"}
{"Structure (SMILES)": "COc1cc(O)ccc1CCC(c1ccc(O)cc1)c1cc2c(c(C)c1O)OC(c1ccc(O)cc1)CC2 (mixture of isomers)", "test system": "human blood", "conditions": "1 µM, together with: A23187", "measurement": "4-HDHA level", "result": "24 ± 6 pg/mL"}
{"note": "Some of these lines once more:"}
{"Structure (SMILES)": "COC1CN([C@H]2CC[C@H]([C@@]3(C)Oc4c(Cl)cc(C(=O)NCc5c(SC)cc(C)[nH]c5=O)c(C)c4O3)CC2)C1", "test": "RNA-seq, item: MMP14", "test system": "human, whole blood", "conditions": "dose not given, 24 h", "scale": "baseline: pretreatment baseline", "measurement": "log2 fold change", "result": 2.92}
{"Structure (SMILES)": "CN1CCCNC(=O)c2cccc(c2)C(=O)NCCCN(C)CCCNc2cccc3c2C(=O)c2cccc(c2C3=O)NCCC1", "target or system": "SAS", "test": "RNA-Seq, item: EIF4ENIF1 mRNA", "conditions": "1 µM, 6 h", "scale": "baseline: untreated cells", "measurement": "log2 fold change", "result": -0.908}
